Measurements of several laboratories.
A part holds a random share of what one study measured. Values joined by “and” are separate records of one study, mostly repeats; a detail may differ. Positions count from the first letter of the parent shown.
Chain of UniProt Q01959 (whole entry, looked up): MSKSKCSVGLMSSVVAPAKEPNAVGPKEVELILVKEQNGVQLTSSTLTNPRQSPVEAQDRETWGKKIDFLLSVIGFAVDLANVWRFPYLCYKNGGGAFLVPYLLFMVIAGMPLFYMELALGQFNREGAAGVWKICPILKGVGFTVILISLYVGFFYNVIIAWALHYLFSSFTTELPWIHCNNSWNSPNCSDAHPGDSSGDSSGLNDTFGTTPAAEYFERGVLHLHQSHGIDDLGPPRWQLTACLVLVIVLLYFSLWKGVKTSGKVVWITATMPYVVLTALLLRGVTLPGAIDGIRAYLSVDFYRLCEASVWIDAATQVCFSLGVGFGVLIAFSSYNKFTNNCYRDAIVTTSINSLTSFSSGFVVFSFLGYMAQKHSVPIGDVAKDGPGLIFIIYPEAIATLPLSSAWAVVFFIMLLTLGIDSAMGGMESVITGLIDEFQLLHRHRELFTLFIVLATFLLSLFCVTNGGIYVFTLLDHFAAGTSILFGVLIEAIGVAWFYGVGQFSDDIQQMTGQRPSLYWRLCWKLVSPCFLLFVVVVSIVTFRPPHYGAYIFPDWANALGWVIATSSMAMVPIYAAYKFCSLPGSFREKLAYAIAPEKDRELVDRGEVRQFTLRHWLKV
Chain of UniProt P11229 (whole entry, looked up): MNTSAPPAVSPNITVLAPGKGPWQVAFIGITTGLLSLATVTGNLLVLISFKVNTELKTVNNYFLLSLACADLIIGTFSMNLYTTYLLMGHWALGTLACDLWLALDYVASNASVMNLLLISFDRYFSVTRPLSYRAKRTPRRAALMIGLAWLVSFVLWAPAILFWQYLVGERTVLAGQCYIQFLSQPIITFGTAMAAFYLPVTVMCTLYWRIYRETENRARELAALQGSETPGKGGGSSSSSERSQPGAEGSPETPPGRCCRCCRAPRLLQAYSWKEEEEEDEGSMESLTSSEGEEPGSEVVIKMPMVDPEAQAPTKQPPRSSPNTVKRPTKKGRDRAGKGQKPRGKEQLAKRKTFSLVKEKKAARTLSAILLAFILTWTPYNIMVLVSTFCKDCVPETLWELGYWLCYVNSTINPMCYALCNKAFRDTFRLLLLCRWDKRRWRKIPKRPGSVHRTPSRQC
Chain of UniProt P23975 (whole entry, looked up): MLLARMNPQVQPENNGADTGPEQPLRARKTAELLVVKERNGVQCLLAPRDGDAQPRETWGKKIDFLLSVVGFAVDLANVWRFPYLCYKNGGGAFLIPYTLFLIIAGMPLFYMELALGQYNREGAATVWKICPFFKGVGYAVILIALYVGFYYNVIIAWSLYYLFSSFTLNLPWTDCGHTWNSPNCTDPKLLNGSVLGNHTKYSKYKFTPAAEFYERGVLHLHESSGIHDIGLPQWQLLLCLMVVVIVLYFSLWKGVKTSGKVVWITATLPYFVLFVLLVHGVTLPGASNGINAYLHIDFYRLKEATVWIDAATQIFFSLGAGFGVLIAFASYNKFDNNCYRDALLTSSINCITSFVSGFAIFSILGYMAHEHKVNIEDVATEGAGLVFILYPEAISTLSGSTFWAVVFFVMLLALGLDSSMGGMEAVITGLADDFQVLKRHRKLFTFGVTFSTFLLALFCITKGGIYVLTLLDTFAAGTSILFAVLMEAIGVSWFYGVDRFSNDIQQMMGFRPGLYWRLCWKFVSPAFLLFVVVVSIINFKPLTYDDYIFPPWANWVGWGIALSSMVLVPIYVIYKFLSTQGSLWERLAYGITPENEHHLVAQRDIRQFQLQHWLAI
Chain of UniProt P20309 (whole entry, looked up): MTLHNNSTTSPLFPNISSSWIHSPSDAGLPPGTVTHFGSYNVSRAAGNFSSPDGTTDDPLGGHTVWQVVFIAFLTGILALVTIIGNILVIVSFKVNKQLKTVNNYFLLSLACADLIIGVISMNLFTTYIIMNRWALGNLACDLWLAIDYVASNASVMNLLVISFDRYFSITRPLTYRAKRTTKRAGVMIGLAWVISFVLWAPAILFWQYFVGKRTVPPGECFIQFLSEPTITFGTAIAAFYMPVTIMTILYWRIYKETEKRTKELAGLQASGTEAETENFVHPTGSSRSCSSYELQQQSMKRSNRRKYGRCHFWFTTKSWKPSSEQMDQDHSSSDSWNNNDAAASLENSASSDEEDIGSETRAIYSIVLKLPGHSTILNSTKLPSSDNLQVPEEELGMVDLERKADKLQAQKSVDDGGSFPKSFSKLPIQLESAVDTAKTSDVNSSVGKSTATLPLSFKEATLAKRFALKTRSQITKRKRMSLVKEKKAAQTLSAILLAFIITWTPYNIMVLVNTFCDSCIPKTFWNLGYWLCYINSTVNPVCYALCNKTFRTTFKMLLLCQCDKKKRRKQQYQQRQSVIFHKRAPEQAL
Chain of UniProt P41145 (whole entry, looked up): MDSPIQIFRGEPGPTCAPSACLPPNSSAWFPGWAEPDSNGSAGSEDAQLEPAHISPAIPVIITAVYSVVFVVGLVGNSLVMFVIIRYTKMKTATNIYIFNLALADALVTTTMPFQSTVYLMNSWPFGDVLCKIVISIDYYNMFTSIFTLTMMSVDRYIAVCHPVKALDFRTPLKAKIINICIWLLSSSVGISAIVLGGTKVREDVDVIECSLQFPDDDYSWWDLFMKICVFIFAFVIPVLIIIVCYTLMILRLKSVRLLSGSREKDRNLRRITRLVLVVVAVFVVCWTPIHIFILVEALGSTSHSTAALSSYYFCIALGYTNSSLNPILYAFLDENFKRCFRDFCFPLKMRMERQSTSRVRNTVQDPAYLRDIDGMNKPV

Set 1 — organism: Sarcocystis neurona; observed: parasite growth; tested at: 10 µM; setting: secondary screen
With `CC(C)CC(N(C)C)C1(c2ccc(Cl)cc2)CCC1.Cl` (centres unmarked) the inhibition was -42.6%.
The inhibition of `CCC1(c2ccc(N)cc2)CCC(=O)NC1=O` (centres unmarked) is reported as -30.8%.
`CN1C(=O)CN=C(c2ccccc2)c2cc(Cl)ccc21` has an inhibition of -27.7%.

Set 2 — cell line: HEK-293T/ACE2; tested at: concentration not given; time: 16 (unit not given); reference: vehicle
The viability of `CCOC(=O)[C@H](CCc1ccccc1)N[C@H]1CCc2ccccc2N(CC(=O)O)C1=O` is reported as 104%.
`C[N+]1(C)[C@@H]2C[C@@H](OC(=O)[C@H](CO)c3ccccc3)C[C@H]1[C@@H]1O[C@@H]12` gave a viability of 103%.
With `Nc1nc(Cl)nc2c1ncn2[C@@H]1O[C@H](CO)[C@@H](O)[C@@H]1F` the viability was 82.8%.
`CN1C(=O)OC(C)(C)C1=O` has a viability of 101%.
With `CCN(CC)CCOC(=O)c1ccc(N)cc1` the viability was 86.6%.
With `CCC1=C(C)CN(C(=O)NCCc2ccc(S(=O)(=O)NC(=O)N[C@H]3CC[C@H](C)CC3)cc2)C1=O` the viability was 102%.
For `NS(=O)(=O)c1cc2c(cc1Cl)NC(C(Cl)Cl)NS2(=O)=O` (centres unmarked), the viability was 100%.
The viability of `CN(C)c1ccc(C(=C2C=CC(=[N+](C)C)C=C2)c2ccc(N(C)C)cc2)cc1` is reported as 83.6%.
`CN(C)CC(c1ccc(O)cc1)C1(O)CCCCC1` (centres unmarked) gave a viability of 103%.
For `CC=CC(=O)N(CC)c1ccccc1C` (mixture of isomers), the viability was 100%.
For `CC(=O)N(O)CCCCCNC(=O)CCC(=O)N(O)CCCCCNC(=O)CCC(=O)N(O)CCCCCN`, the viability was 100%.
`CCCCC1=NC2(CCCC2)C(=O)N1Cc1ccc(-c2ccccc2-c2nnn[nH]2)cc1` gave a viability of 99.9%.
`Oc1c(Cl)cc(Cl)c2cccnc12` gave a viability of 80.2%.
`Cc1ccc(Cl)c(Nc2ccccc2C(=O)O)c1Cl` gave a viability of 103%.
For `CCN(CC)CCNC(=O)c1ccc(N)cc1`, the viability was 91.6%.
With `CC(C)C(=O)Nc1ccc([N+](=O)[O-])c(C(F)(F)F)c1` the viability was 98.3%.
With `CC(CCc1ccccc1)NCC(O)c1ccc(O)c(C(N)=O)c1` (centres unmarked) the viability was 101%.
The viability of `C=C1C[C@@H]2[C@H](CC[C@]3(C)C(=O)CC[C@@H]23)[C@@]2(C)C=CC(=O)C=C12` is reported as 101%.
With `CCCCCCCC(=O)N[C@H](CN1CCCC1)[C@H](O)c1ccc2c(c1)OCCO2` the viability was 94.5%.
With `CCCCc1nc(Cl)c(CO)n1Cc1ccc(-c2ccccc2-c2nn[nH]n2)cc1` the viability was 99.5%.
The viability of `CCCCOc1ccc(OCCCN2CCOCC2)cc1` is reported as 100%.
The viability of `CC1=C(/C=C/C(C)=C/C=C/C(C)=C/C=C/C=C(C)/C=C/C=C(C)/C=C/C2=C(C)CCCC2(C)C)C(C)(C)CCC1` is reported as 99.2%.
For `COc1ccc(OC)c(C(O)CNC(=O)CN)c1` (centres unmarked), the viability was 101%.
`Cc1cn[nH]c1` has a viability of 101%.
`Cc1cnc(C(=O)N[C@H]2CCCCC/C=C\[C@@H]3C[C@@]3(C(=O)NS(=O)(=O)C3CC3)NC(=O)[C@@H]3C[C@@H](Oc4nc5ccccc5c5ccccc45)CN3C2=O)cn1` has a viability of 97.4%.

Set 3 — tested at: 10 µM
Compound: O=C(NCc1ncc(C(F)(F)F)cc1Cl)c1ccc2c(c1)C1(CCS(=O)(=O)CC1)[C@@H](C1CC1)N2S(=O)(=O)c1ccc(F)cc1
It gave 4.54% for inhibition (Kappa-type opioid receptor (OPRK1, Homo sapiens, UniProt P41145); ligand displacement).
The inhibition was -4.64% (Sodium-dependent dopamine transporter (SLC6A3, Homo sapiens, UniProt Q01959); cell-free assay).
Sodium-dependent noradrenaline transporter (SLC6A2, Homo sapiens, UniProt P23975); cell-free assay — inhibition: 3.76%.
For Muscarinic acetylcholine receptor M1 (CHRM1, Homo sapiens, UniProt P11229); ligand displacement: inhibition read -3.7%.
For Muscarinic acetylcholine receptor M3 (CHRM3, Homo sapiens, UniProt P20309); ligand displacement: inhibition read 14.4%.

Set 4 — cell line: mouse MPNST tumor cells; method: high-content nuclear imaging; item: cell number; tested at: 10 µM; time: 12 h; setting: mean of 2 replicates; reference: plate mean; reading: higher = more cells
`CC(C)(N)Cc1ccccc1` gave a nuclei count of 1.58 z-score.
The nuclei count of `Oc1cc(Cl)ccc1Oc1ccc(Cl)cc1Cl` is reported as -0.753 z-score.
With `CCn1cc(C(=O)O)c(=O)c2cc3c(cc21)OCO3` the nuclei count was 2.62 z-score.
`CC[C@@]1([C@@H]2O[C@@H]([C@H]3O[C@@](O)(CO)[C@H](C)C[C@@H]3C)C[C@@H]2C)CC[C@H]([C@]2(C)CC[C@]3(C[C@H](O)[C@@H](C)[C@@H]([C@@H](C)[C@@H](OC)[C@H](C)C(=O)O)O3)O2)O1` gave a nuclei count of 2.5 z-score.
With `CC(=O)[C@H]1CC[C@H]2[C@@H]3CC[C@H]4C[C@H](O)CC[C@]4(C)[C@H]3CC[C@]12C` the nuclei count was 0.272 z-score.

Set 5 — cell line: A-375; tested at: 100 µM; time: 36 h
The viability of `C#C[C@]1(O)CC[C@H]2[C@@H]3CCC4=CC(=O)CC[C@]4(C)[C@H]3CC[C@@]21C` is reported as 80.1%.
`CC(C)c1c(CN(C)C(C)Cc2ccccc2)n(C)n(-c2ccccc2)c1=O` (centres unmarked) has a viability of 79.6%.
`COc1cccc2c1cc([N+](=O)[O-])c1c(C(=O)O)cc3c(c12)OCO3` gave a viability of 42.7%.
The viability of `C[C@]12CC[C@H](O)CC1=CC[C@@H]1[C@@H]2CC[C@]2(C)C(=O)CC[C@@H]12` is reported as 43.9%.
The viability of `COc1cc2c(cc1OC)C13CCN4CC5=CCOC6CC(=O)N2C1C6C5CC43` (centres unmarked) is reported as 96.4%.

Set 6 — target: CCNA1, cyclin fold, Cln2 fusion (human); method: yeast growth competition, sequencing; medium: yeast; setting: strong parent motif; reference: not given; reading: higher = stronger binding; parent: viral docking peptide; YKVKRRLVFGADD
`AKVKRRLVFGADD [Y1A]` — result for “normalised enrichment score”: 0.428.
`YKVKRRLVFGNDD [A11N]`: “normalised enrichment score” 1.28.
For `YKVKRRLVFGAND [D12N]`, “normalised enrichment score” read 1.4.
For `YKVKRTLVFGADD [R6T]`, “normalised enrichment score” read 0.523.
For `YKVKRRLCFGADD [V8C]`, “normalised enrichment score” read 1.19.
Under “normalised enrichment score”, `YKLKRRLVFGADD [V3L]` is recorded as 0.468.
Under “normalised enrichment score”, `YKVCRRLVFGADD [K4C]` is recorded as 0.524.
Under “normalised enrichment score”, `YKVKRRLVFGAID [D12I]` is recorded as 1.04.

Set 7 — setting: unit not given; reference: untreated
Compound: CNCc1ccc(-c2[nH]c3cc(F)cc4c3c2CCNC4=O)cc1
For RPE-1 BRCA1-/-; 0.1 µM: clonogenic survival read 0.0106 and 0.0417 and 0.0068.
RPE-1 BRCA2-/-; 0.1 µM — clonogenic survival: 0.0268 and 0.0575 and 0.0107.
For RPE-1 BRCA1-/-; 0.5 µM: clonogenic survival read 0.
It gave 0 and 0.0133 for clonogenic survival (RPE-1 BRCA2-/-; 0.25 µM).

Mixed results
The recovery of `O=C1CCC(N2Cc3c(ccc4c3OCC43CCN(Cc4ccccc4)CC3)C2=O)C(=O)N1` (centres unmarked) is reported as 89.5% (Caco-2; 10 µM, 120 min, apical to basolateral).

Some of these lines once more (set 5):
The viability of `C#C[C@]1(O)CC[C@H]2[C@@H]3CCC4=CC(=O)CC[C@]4(C)[C@H]3CC[C@@]21C` is reported as 80.1%.
`CC(C)c1c(CN(C)C(C)Cc2ccccc2)n(C)n(-c2ccccc2)c1=O` (centres unmarked) has a viability of 79.6%.
`COc1cccc2c1cc([N+](=O)[O-])c1c(C(=O)O)cc3c(c12)OCO3` gave a viability of 42.7%.
The viability of `C[C@]12CC[C@H](O)CC1=CC[C@@H]1[C@@H]2CC[C@]2(C)C(=O)CC[C@@H]12` is reported as 43.9%.
The viability of `COc1cc2c(cc1OC)C13CCN4CC5=CCOC6CC(=O)N2C1C6C5CC43` (centres unmarked) is reported as 96.4%.
